Assay results collected from several papers.
A part holds a random share of what one study measured.

Study 1 — technique: RNA Bind-n-Seq; molecule type: RNA; matrix: in vitro; tested at: 1 µM; setting: whole 134-nt RNA, ends assumed; added: 150 mM KCl; baseline: input library; reading: higher = stronger binding
Target: Ras GTPase-activating protein-binding protein 1, RRM domain (G3BP1, Homo sapiens, UniProt Q13283)
Sequence of UniProt Q13283 (whole entry, looked up): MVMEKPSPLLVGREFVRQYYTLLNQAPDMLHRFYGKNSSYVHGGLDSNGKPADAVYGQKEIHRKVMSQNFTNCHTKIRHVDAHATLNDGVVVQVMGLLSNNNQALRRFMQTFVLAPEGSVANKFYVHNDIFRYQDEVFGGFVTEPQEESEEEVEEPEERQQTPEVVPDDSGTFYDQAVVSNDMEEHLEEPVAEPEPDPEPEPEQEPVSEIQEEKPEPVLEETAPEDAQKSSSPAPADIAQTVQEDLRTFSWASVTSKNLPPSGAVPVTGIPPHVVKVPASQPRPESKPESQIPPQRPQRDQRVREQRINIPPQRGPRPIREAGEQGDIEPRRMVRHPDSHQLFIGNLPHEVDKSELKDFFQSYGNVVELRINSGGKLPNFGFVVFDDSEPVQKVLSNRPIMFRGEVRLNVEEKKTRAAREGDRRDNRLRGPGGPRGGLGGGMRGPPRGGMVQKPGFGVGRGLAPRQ
All sequences stand within: GGGAGUUCUACAGUCCGACGAUC … UGGAAUUCUCGGGUGUCAAGG
For `CCUCAAGUCCUGUGCUACACAUCGUAUGUACCGAAUCGGGGUGGGUGGGUGGAAAGUAUUAUGUUACGCCGUUCGGAUCUGCACUUCCAG`, the log2 enrichment was 0.409.
`GUCCUGUGCUACACAUCGUAUGUACCGAAUCGGGGAAAAAAAGGGGUGGGGAAAGGGGAAAGUAUUAUGUUACGCCGUUCGGAUCUGCAC` has a log2 enrichment of 0.921.
`AGUCCUGUGCUACACAUCGUAUGUACCGAAUCGGGGCCCCGGCCCCGGGGCCCCGGGAAAGUAUUAUGUUACGCCGUUCGGAUCUGCACU` has a log2 enrichment of -1.19.
For `GCAGGAAGUAAAAACAAAUGGAAAUGCUUCGGAUAGUGGCAGGGGUGGGGGUUGAUAAGGAAAGGGUGGGAUGGGAGUGGGUAAAGAGUU`, the log2 enrichment was 0.705.
With `UCCCUAUUCCAGUCAUACACGUGGACCUAACUGCACCAGUAGCUUUUCUGAGAAUACUUGCUGAAAAGGAAGUUUUCUGGAAUGGGUAAG` the log2 enrichment was -0.128.
The log2 enrichment of `CCUCAAGUCCUGUGCUACACAUCGUAUGUACCGAAUCGGGUGGGGUGGUGGGGAAAGUAUUAUGUUACGCCGUUCGGAUCUGCACUUCCA` is reported as 0.238.

Study 2 — technique: RNA Bind-n-Seq; molecule type: RNA; matrix: in vitro; tested at: 365 nM; baseline: no-protein control; reading: higher = stronger binding
Target: RNA binding protein fox-1 homolog 2, RRM domain, GST-SBP tag (RBFOX2, Homo sapiens, UniProt O43251-10, residues 100-194)
Setting: natural RNA segment, single round, ends assumed
All sequences stand within: GGGAGUUCUACAGUCCGACGAUC … UGGAAUUCUCGGGUGCCAA
`ACUGUACUAGUUACUAUGAACAUGAAAAAAUAAUUAUCUUAGACUAUUUUAGAAGUAGGGUGUGAACAUAUAUUUUUAGAGGAAAAGCUGAUAGUCAUAGGGAAUAUAUG` — result for “RBNS enrichment (R)”: 0.477.
`UGUCUGAGGAACCUGUGUGUCCAGAGCCACAUGAAAUGUGAAUGAUUGUUGGCAAUAUAAUCUUGAGAGGCUGGUGGGACUUGGGGAAGGAGCAGGGACAGACAUCUGUU`: “RBNS enrichment (R)” 0.659.
Under “RBNS enrichment (R)”, `CUCCAGCCCUGGUCUUGUCUUUUCAUCCCUCUUCCCCACGACAGAAGAAGUUGUGGCCCUGGCCAUGUCAUCGUGUUCCUGUGUCCCCUGCAUGUACCCCACCCUCCACC` is recorded as 5.24.
For `AUUCAAAAUCAAGCUUUGAGCAGGGGAGUGAGGCAGCCAGAAGUGGGGGCAGAGGAGGGUGGCUCUGUUUCCCCAAGGCAAAGCUUAUGACCAAUGGGCCAUCGGACUGG`, “RBNS enrichment (R)” read 1.05.
`CAAUGUGCAUUUUUUGGAGGUCAUUCAAAUUUUCCCUCUUCUGUGAUUGCUGUAGUUUCUUUCAUAGAAAGUAGCUGAUCUGAUGUAAUCUUUUACCUUUUAAACAACCA` — result for “RBNS enrichment (R)”: 1.53.
`AGUCAUGAAUGUUUUCUUGCCAGGGUCAGUGUUCCCAGGACCUUAGUGCAUGGUCGGGGCAGGAACUGGUGCAUGGAGGCUGCUGGGACCUGGUGAACAGUGUGUGAUUU`: “RBNS enrichment (R)” 2.75.
`UAUAGAGAAAAAUAGAAAGAUAAAAUGUAAAAUCAAAUCUUCAGGCAAUCUUACAAUUUGACCAGAGAAUAUUUUUUAUUAGUACUAGUUGUUAUUACCUAUAAUUGAGA`: “RBNS enrichment (R)” 0.402.
`UCUAAGAUUAUAAAAUAAGCAGGUACUUUAUUUACUAUGUUGUACUCUGCAGUGUUGAUUUUUUAAAGUAGUUUUCUGCAAUGAGCUUUUAGUCUAAGGAAAGCAUAGAU` — result for “RBNS enrichment (R)”: 0.502.

Study 3 — technique: RNA Bind-n-Seq; molecule type: RNA; matrix: in vitro; tested at: not given; baseline: input RNA pool; reading: higher = stronger binding
Target: RING finger protein unkempt homolog, zinc fingers 1-6, GST-SBP tag (UNK, Homo sapiens, UniProt Q9C0B0, residues 30-357)
Setting: RNA with constant flanks, human-mouse chimeric sites, ends assumed
All sequences stand within: GGGAGUUCUACAGUCCGACGAUC … CAACAGAGGAUUGAGCAUCA
Residues (chain): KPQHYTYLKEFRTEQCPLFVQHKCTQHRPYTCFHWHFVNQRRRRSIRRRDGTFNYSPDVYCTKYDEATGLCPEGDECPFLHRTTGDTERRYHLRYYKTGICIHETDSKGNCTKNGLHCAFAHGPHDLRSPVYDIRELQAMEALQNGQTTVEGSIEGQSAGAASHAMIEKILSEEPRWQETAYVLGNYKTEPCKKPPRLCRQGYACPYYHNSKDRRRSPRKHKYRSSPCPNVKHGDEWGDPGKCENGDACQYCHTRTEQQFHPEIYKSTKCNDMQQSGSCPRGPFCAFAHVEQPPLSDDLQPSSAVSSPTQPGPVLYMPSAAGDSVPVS
With `AAUUUCCUGUCAUACUUUUUAGACAUUGCCAUAGGUAUUACAGAGCACCUGGCCACAUUCUAGGUUUGUGUUAUUUCUCAGCUAUGGGGGUAUGAUUAUGAGAACACUGCUUAACUAAUG` the bound/input enrichment was 1.73 ratio.
The bound/input enrichment of `GCAAAGGAUGAUGAGGCGGCAGCUGUUGCCCUUUCCUCUCUCGUUCAUGCUUUGGAUGAGUUAAACAUGGUGGCCAUAGUUCGAUAUGCUUAUGACAAAAGAUCUAAUCCUCAAGUUGGU` is reported as 0.824 ratio.
The bound/input enrichment of `CUGAGGAUACCACUGAAAGAGACAUUAAAGAAUCAUUUGAGGGCUCUCGUUCGGGCAGAAUAGUCACUGAUCGGGAAACUGGUUCUUCCAAAGGGUUUGGUUUUGUAGACUUUAAUAGUG` is reported as 0.891 ratio.
`CUGUGUGUGCUGAAUAAAUGGCUUGUAAGAACUGUCCUCCAAGCUGUACCCAUGUACGUUAUUAUAGUUGCUGCAAAAUGUUCUUCCUGAUAUUGAUUUUAUUUGUUAACUGAAGGUCUC` gave a bound/input enrichment of 0.798 ratio.
`GCUCUUGGGAAUGUAAUCAGCGCCUUGGGGGACAAGAGCAAGAGAGCCACACAUGUCCCUUACAGAGACUCUAAGCUGACAAGACUCUUGCAGGAUUCCCUCGGGGGUAACAGCCAAACC` gave a bound/input enrichment of 0.097 ratio.

Other studies, line by line
`PhoQ, residues 284 288 289 292 302 303 SMYGEC` gave a fold induction of 1.31 (PhoP, residues 12 14 15 18 19 GQALL (Escherichia coli, UniProt P23836); Sort-seq, refers to: YFP reporter; E. coli; PhoQ-PhoP variant library, added: 10 µM Mg2+; baseline: high Mg2+ state, higher = stronger signaling).

For quick reference, copied from above (study 1):
For `GCAGGAAGUAAAAACAAAUGGAAAUGCUUCGGAUAGUGGCAGGGGUGGGGGUUGAUAAGGAAAGGGUGGGAUGGGAGUGGGUAAAGAGUU`, the log2 enrichment was 0.705.
